Published values from different studies.
Compare with care: the assays were run in different laboratories. ± marks the error that the study gave.

Structure (SMILES) = CC(C)C(=O)OC[C@H]1O[C@@H](n2ccc(NO)nc2=O)[C@H](O)[C@@H]1O; system = human plasma; conditions = 24 h; quantity = remaining compound; result = 0%
Structure (SMILES) = O=C(/C=C/c1ccc(O)c(O)c1)OC[C@H]1O[C@@H](OCCc2ccc(O)c(O)c2)[C@H](O)[C@@H](O)[C@@H]1O; tested on = Spike glycoprotein (Severe acute respiratory syndrome coronavirus 2, UniProt P0DTC2); test = binding, biolayer interferometry; quantity = Kd; result = 11 µM
Structure (SMILES) = O=C[C@H](C[C@@H]1CCNC1=O)NC(=O)[C@H](CC1CCCCC1)NC(=O)c1cc2ccccc2[nH]1; system = dog, plasma; conditions = intravenous, 4 mg/kg; quantity = AUC; result = 7.13 µg·h/mL
Structure (SMILES) = Nc1ncnc2c([C@@H]3N[C@H](CO)[C@@H](O)[C@H]3O)c[nH]c12; tested on = Marburg virus; test = surface glycoprotein expression; system = HeLa, Musoke; conditions = 25 µM, 12 h; quantity = inhibition; result = 88.9%
Structure (SMILES) = CC[C@H](C)[C@H](NC(=O)[C@H](CC(C)C)NC(=O)[C@H](Cc1c[nH]c2ccccc12)NC(=O)[C@H](CCC(N)=O)NC(=O)[C@@H](NC(=O)[C@H](Cc1ccccc1)NC(=O)[C@H](C)NC(=O)[C@H](CCCCNC(=O)COCCOCCNC(=O)COCCOCCNC(=O)CC[C@H](NC(=O)CCCCCCCCCCCCCCCCCCC(=O)O)C(=O)O)NC(=O)[C@H](CCC(N)=O)NC(=O)[C@H](C)NC(=O)[C@@H](NC(=O)[C@H](CCCCN)NC(=O)[C@H](CC(=O)O)NC(=O)[C@H](CC(C)C)NC(=O)C(C)(C)NC(=O)[C@@H](NC(=O)[C@H](CO)NC(=O)[C@H](Cc1ccc(O)cc1)NC(=O)[C@H](CC(=O)O)NC(=O)[C@H](CO)NC(=O)[C@@H](NC(=O)[C@H](Cc1ccccc1)NC(=O)[C@@H](NC(=O)CNC(=O)[C@H](CCC(=O)O)NC(=O)C(C)(C)NC(=O)[C@@H](N)Cc1ccc(O)cc1)[C@@H](C)O)[C@@H](C)O)[C@@H](C)CC)[C@@H](C)CC)C(C)C)C(=O)N[C@@H](C)C(=O)NCC(=O)NCC(=O)N1CCC[C@H]1C(=O)N[C@@H](CO)C(=O)N[C@@H](CO)C(=O)NCC(=O)N[C@@H](C)C(=O)N1CCC[C@H]1C(=O)N1CCC[C@H]1C(=O)N1CCC[C@H]1C(=O)N[C@@H](CO)C(N)=O; test = measured: treatment-emergent vessel puncture site bruise; system = healthy subjects; conditions = 0.5 mg, multiple ascending dose; quantity = subjects with adverse event; result = 0%
Structure (SMILES) = Cc1cc(C)c(CNC(=O)c2cc(Cl)c3c(c2C)O[C@@](C)([C@H]2CC[C@H](N(C)C)CC2)O3)c(=O)[nH]1; system = human, relapsed/refractory NHL; conditions = concentration not given, treatment-related TEAEs, grade 3; quantity = COVID-19 pneumonia incidence; result = 0%
Structure (SMILES) = CNC(=O)[C@@H](NC(=O)[C@H](CC(C)C)[C@H](O)C(=O)NO)C(C)(C)C; tested on = Daboia russelii venom proteases (SVMP); test = protease activity, inhibitor; system = GA population; conditions = 100 µM, with: azocasein substrate; scale = reference: venom alone; quantity = remaining activity; result = 0%
Structure (SMILES) = C[C@@H]1Cc2c(Cl)cc(C(=O)N[C@H](Cc3ccccc3)C(=O)O)c(O)c2C(=O)O1; system = chicken embryo; conditions = in ovo injection, 0.50 µg/egg; quantity = body weight to egg weight ratio; result = 72.5 ± 2.9
Structure (SMILES) = CC(C)(C)[C@H](NC(=O)C(F)(F)F)C(=O)N1C[C@H]2[C@@H]([C@H]1C(=O)N[C@H](C#N)C[C@@H]1CCNC1=O)C2(C)C; system = human, fasted; conditions = oral, 1500 mg single dose, 28 days, no ritonavir; quantity = participants with related adverse events; result = 0%
Structure (SMILES) = C[C@@H]1COCCN1c1cc(C2([S@](C)(=N)=O)CC2)nc(-c2cc[nH]c3nccc2-3)n1; system = Japanese advanced solid tumour patients; conditions = oral, 240 mg twice daily, any grade; quantity = COVID-19 incidence; result = 16.7%
Structure (SMILES) = CC(C)C[C@H](NC(=O)CNC(=O)[C@H](CC(C)C)NC(=O)[C@H](CC(C)C)NC(=O)[C@H](CC(C)C)NC(=O)[C@H](CCCCN)NC(=O)[C@H](CCCCN)NC(=O)[C@H](CC(C)C)NC(=O)[C@@H](N)CCCCN)C(=O)N[C@@H](CC(C)C)C(=O)N[C@@H](CC(C)C)C(=O)N[C@@H](CCCCN)C(=O)N[C@@H](CCCCN)C(=O)O; tested on = HEK-293T; test = cell death; conditions = 24 h, 10% cell death; quantity = lowest cytotoxic concentration; result = > 256 µg/mL
Structure (SMILES) = Cn1cnc(Cn2c(=O)[nH]/c(=N\c3cc4cn(C)nc4cc3Cl)n(Cc3cc(F)c(F)cc3F)c2=O)n1; system = healthy Japanese adults, plasma; conditions = oral, 750 mg, day 1, fasted, with prednisolone; quantity = AUC(0-tau); result = 554 µg·h/mL
Structure (SMILES) = Cn1cnc(Cn2c(=O)[nH]/c(=N\c3cc4cn(C)nc4cc3Cl)n(Cc3cc(F)c(F)cc3F)c2=O)n1; system = human, mild renal impairment; conditions = oral, 375 mg, decreased GFR TEAE, mild severity; quantity = patients with adverse event; result = 0%
Structure (SMILES) = C[C@H]1CN(C(=O)CC#N)[C@]12CCN(c1ncnc3[nH]ccc13)C2; system = human; conditions = oral, 12 mg single dose; quantity = participants with positive SARS-CoV-2 test; result = 0%
Structure (SMILES) = Cc1cc(C)c(CNC(=O)c2cc(Cl)c3c(c2C)O[C@@](C)([C@H]2CC[C@H](N(C)C)CC2)O3)c(=O)[nH]1; system = relapsed/refractory NHL patients; conditions = oral, 200 mg once daily, onset after cycle 1 day 1; quantity = grade ≥3 adverse event COVID-19; result = 4.2%

A few entries again:
Structure (SMILES) = C[C@H]1CN(C(=O)CC#N)[C@]12CCN(c1ncnc3[nH]ccc13)C2; system = human; conditions = oral, 12 mg single dose; quantity = participants with positive SARS-CoV-2 test; result = 0%
Structure (SMILES) = Cc1cc(C)c(CNC(=O)c2cc(Cl)c3c(c2C)O[C@@](C)([C@H]2CC[C@H](N(C)C)CC2)O3)c(=O)[nH]1; system = relapsed/refractory NHL patients; conditions = oral, 200 mg once daily, onset after cycle 1 day 1; quantity = grade ≥3 adverse event COVID-19; result = 4.2%
